Assay results pooled from the literature.
A part holds a random share of what one study measured. Changes are numbered by the printed parent chain.

Study 1 — technique: DHFR PCA, deep sequencing; matrix: yeast; together with: (+)-ABA 710 µM; relative to: wild-type fitted maximum; direction: higher = stronger binding
Target: ABI1, truncated, D143A, DHFR fusion (Arabidopsis thaliana)
Setting: methotrexate growth selection, single substitutions
Starting sequence: PYL1, truncated, DHFR fusion (Arabidopsis thaliana); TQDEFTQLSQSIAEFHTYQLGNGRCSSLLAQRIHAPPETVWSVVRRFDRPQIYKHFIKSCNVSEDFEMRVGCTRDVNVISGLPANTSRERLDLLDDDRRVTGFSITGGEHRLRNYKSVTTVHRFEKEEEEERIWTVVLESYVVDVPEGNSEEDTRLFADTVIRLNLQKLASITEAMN; partner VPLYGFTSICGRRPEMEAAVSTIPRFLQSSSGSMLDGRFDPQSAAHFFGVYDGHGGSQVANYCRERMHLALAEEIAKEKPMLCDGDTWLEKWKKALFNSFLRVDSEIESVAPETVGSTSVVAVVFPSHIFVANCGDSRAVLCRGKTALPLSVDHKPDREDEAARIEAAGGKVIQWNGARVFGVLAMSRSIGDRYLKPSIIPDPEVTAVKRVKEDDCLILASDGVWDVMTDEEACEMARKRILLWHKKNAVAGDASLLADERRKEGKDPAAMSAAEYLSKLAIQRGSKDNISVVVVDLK
Under “relative binding score”, `R132V` is recorded as 112%.
`C72F` — result for “relative binding score”: 93.3%.
`R24T`: “relative binding score” 97.7%.
Under “relative binding score”, `L82F` is recorded as 76.9%.
`V161K`: “relative binding score” 5.81%.
`V70N`: “relative binding score” 83.5%.
For `I52Y`, “relative binding score” read 102%.
For `V70M`, “relative binding score” read 87.2%.
For `R163Y`, “relative binding score” read 61.7%.
`P37C`: “relative binding score” 96.6%.
For `L112N`, “relative binding score” read -14.5%.
`L8Y` — result for “relative binding score”: 84.7%.
`G71N`: “relative binding score” 87.1%.
Under “relative binding score”, `V44F` is recorded as 7.3%.
`Y115P` — result for “relative binding score”: -18.3%.
For `L91Y`, “relative binding score” read 17.6%.
Under “relative binding score”, `V142Q` is recorded as 97.5%.
For `P146F`, “relative binding score” read 46.3%.
`G102D` — result for “relative binding score”: 5.45%.
Under “relative binding score”, `T39F` is recorded as 96.4%.
For `D3W`, “relative binding score” read 98.9%.
`E130H` — result for “relative binding score”: 108%.

Study 2 — technique: universal PBM; form: double-stranded DNA, one strand shown; matrix: in vitro; concentration: not given; direction: higher = stronger binding
Target: Sal-like protein 4, full length isoform B (SALL4, Homo sapiens, UniProt Q9UJQ4-2, residues 1-616)
Setting: 8-mer, flanks averaged, mean of replicates
`ATACCCTA` has an E-score of 0.148.
The E-score of `CCCACCGC` is reported as -0.195.
The E-score of `ATGATCCC` is reported as 0.0331.
With `GTCTAGAC` the E-score was -0.308.
The E-score of `AGCGAGTC` is reported as -0.178.
`GCGCATAA` gave an E-score of 0.165.
`TCGAATCA` has an E-score of 0.0108.
`CAGCTTAC` gave an E-score of 0.0129.
`CCCATTCA` gave an E-score of -0.02.
With `ACAGAATA` the E-score was 0.223.
`ATCCTGCC` gave an E-score of -0.187.
For `GTAGTAGA`, the E-score was 0.134.
With `GCGTACCC` the E-score was -0.128.
The E-score of `AGACATAC` is reported as 0.167.
`ACGCTAAC` gave an E-score of -0.21.
With `CATCATTC` the E-score was 0.0111.
For `GGGCCTTA`, the E-score was -0.168.
The E-score of `CCATCTAA` is reported as -0.00018.
`AGAGAGGA` has an E-score of -0.112.
The E-score of `AAATAGGA` is reported as 0.194.
For `CCGAATTA`, the E-score was 0.0644.
`TCAGACCA` has an E-score of 0.0262.
`TCGCTTCA` has an E-score of 0.0599.
With `CAGTGCCG` the E-score was -0.266.

Study 3 — technique: protein binding microarray; form: double-stranded DNA, one strand shown; matrix: in vitro; concentration: not given; relative to: not given; direction: higher = stronger binding
Target: Histone acetyltransferase KAT6A, both winged helices, GST fusion (KAT6A, Homo sapiens, UniProt Q92794, residues 1-181)
Setting: 8-mer, flanks averaged, mean of 2 arrays, mostly near background
Target sequence (chain): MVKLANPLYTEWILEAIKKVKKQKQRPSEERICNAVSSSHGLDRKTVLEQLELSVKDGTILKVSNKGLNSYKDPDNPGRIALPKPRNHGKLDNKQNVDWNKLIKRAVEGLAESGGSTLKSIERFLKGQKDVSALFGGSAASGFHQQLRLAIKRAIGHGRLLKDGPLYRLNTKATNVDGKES
The E-score of `CAACAGGC` is reported as 0.0504.
For `GTGAGGTA`, the E-score was -0.203.
`AACGGCCG` has an E-score of 0.341.
With `AGTCGACG` the E-score was 0.171.
The E-score of `GTGGAAGA` is reported as -0.00431.
`CCACCATA` has an E-score of -0.248.
`AAGTTTTA` has an E-score of -0.0697.
For `ATGAATAA`, the E-score was -0.126.
The E-score of `TCTCGAGA` is reported as 0.0378.
`CTTTGCCC` has an E-score of -0.122.
The E-score of `AAATTGGT` is reported as -0.127.
With `ACCTTTCT` the E-score was -0.0294.
`CGCATTAA` has an E-score of 0.136.
With `GCCGCTAA` the E-score was 0.283.
For `GTCGCAGA`, the E-score was 0.175.
`GACATATC` gave an E-score of -0.0343.
`CCGCGTCC` gave an E-score of 0.264.
`GTCCTTGA` gave an E-score of -0.0519.
With `GCGAGGCC` the E-score was -0.00023.

Study 4 — technique: RNA Bind-n-Seq; form: RNA; matrix: in vitro; concentration: 1 µM; setting: whole 134-nt RNA, ends assumed; together with: 150 mM KCl; relative to: input library; direction: higher = stronger binding
Target: Ras GTPase-activating protein-binding protein 1, RRM domain (G3BP1, Homo sapiens, UniProt Q13283)
Chain of UniProt Q13283 (whole entry, looked up): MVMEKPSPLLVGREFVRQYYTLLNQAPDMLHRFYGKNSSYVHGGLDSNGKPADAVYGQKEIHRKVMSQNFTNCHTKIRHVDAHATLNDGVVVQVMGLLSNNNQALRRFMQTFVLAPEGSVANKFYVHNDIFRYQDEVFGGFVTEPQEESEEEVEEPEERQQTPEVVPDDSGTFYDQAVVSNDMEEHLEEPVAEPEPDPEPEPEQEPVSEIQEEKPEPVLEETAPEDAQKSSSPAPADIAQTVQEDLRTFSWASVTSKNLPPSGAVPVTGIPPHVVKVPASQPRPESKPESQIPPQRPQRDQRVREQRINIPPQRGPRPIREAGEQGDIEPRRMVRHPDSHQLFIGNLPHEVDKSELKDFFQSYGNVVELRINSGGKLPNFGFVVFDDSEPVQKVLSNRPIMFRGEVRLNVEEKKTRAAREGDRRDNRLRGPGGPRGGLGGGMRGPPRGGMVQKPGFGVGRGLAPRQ
`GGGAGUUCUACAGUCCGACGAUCUGGGAGGUGGAUUUUGUUUAUUUUUUUAGCUCAUUUCCAGGGGUGGGUAUUUUUUUUUAAUAUGUGUCAUGAAUAAAGUUGUUUUUGAAAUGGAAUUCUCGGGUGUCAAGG` gave a log2 enrichment of 1.38.
`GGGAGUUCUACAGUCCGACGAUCAGUCCUGUGCUACACAUCGUAUGUACCGAAUCGGGGUUUGGGGAAAAAGGGGAGGGGAAAGUAUUAUGUUACGCCGUUCGGAUCUGCACUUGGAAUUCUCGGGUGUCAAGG` gave a log2 enrichment of 1.29.
`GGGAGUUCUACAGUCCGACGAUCUAACUUUAGAGGAGGAUCUGAUGGAUAUGGCAGUGGACGUGGAUUUGGGGGUGGCUAUAAUGGGUAUGGAGGAGGACCUGGAGGUGGCAAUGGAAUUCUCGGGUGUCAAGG` gave a log2 enrichment of -0.418.
For `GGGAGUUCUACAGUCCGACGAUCUGGGAGGUGGAUUUUGUUUAUUUUUUUAGCUCAUUUCCAGGGGUGGGAAUUUUUUUUUAAUAUGUGUCAUGCAUAAAGUUGUUUUUGAAAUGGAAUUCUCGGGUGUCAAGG`, the log2 enrichment was 1.7.
`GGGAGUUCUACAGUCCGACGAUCCAAGUCCUGUGCUACACAUCGUAUGUACCGAAUCGGGAAAAGGAAAAGGGAAAAGGAAAGUAUUAUGUUACGCCGUUCGGAUCUGCACUUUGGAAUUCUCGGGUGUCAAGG` gave a log2 enrichment of -0.206.
`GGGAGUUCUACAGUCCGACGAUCCUGUGCUACACAUCGUAUGUACCGAAUCGGGCCCCCCCGGGGCCCCCCCGGGCCCCCCCGGAAAGUAUUAUGUUACGCCGUUCGGAUCUGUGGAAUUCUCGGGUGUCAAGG` has a log2 enrichment of -0.605.
The log2 enrichment of `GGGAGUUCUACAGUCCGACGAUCUCCUCAAGUCCUGUGCUACACAUCGUAUGUACCGAAUCGGUGGGGUGGUGGAAAGUAUUAUGUUACGCCGUUCGGAUCUGCACUUCCAGCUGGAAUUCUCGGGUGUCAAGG` is reported as -0.216.
For `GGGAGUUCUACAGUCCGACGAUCGUCCUGUGCUACACAUCGUAUGUACCGAAUCGGGGAAAAAAAGGGGUUUGGGGUGGGGAAAGUAUUAUGUUACGCCGUUCGGAUCUGCACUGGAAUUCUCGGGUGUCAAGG`, the log2 enrichment was 1.21.
`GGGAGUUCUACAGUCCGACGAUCCACAGACAACACGCACCCACACAGACACAAAAGGAAGGGGUUGGGAUGGGGACAGGGUGCACAGCAGGGCGGGGUAGGACCCCAGCCCCUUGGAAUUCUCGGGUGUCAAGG` gave a log2 enrichment of -0.101.
For `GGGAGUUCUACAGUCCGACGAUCCUCAAGUCCUGUGCUACACAUCGUAUGUACCGAAUCGGGAGGGGAGGGAGGGGAAAGUAUUAUGUUACGCCGUUCGGAUCUGCACUUCCAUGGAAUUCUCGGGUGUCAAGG`, the log2 enrichment was 1.43.

Study 5 — target: CCNB2, cyclin fold, Cln2 fusion (human); technique: yeast growth competition, sequencing; matrix: yeast; setting: weak parent motif; relative to: not given; direction: higher = stronger binding
Starting sequence: RB1 docking peptide (human); PKPLKKLRFDIEG
Under “normalised enrichment score”, `PKPLKKLRYDIEG [F9Y]` is recorded as -0.382.
`CKPLKKLRFDIEG [P1C]` — result for “normalised enrichment score”: 1.27.
Under “normalised enrichment score”, `PKPLWKLRFDIEG [K5W]` is recorded as 0.253.
Under “normalised enrichment score”, `PKPLKKLRFDIEQ [G13Q]` is recorded as 0.941.
Under “normalised enrichment score”, `PKFLKKLRFDIEG [P3F]` is recorded as -0.176.
`PKPLKKLRFTIEG [D10T]`: “normalised enrichment score” 0.225.
Under “normalised enrichment score”, `PKPHKKLRFDIEG [L4H]` is recorded as 0.28.
`PKPLCKLRFDIEG [K5C]` — result for “normalised enrichment score”: 0.0365.
Under “normalised enrichment score”, `PKPLKKLRIDIEG [F9I]` is recorded as -0.08.
`PKPEKKLRFDIEG [L4E]` — result for “normalised enrichment score”: 0.279.
For `PKPLKKLRFDICG [E12C]`, “normalised enrichment score” read 0.539.
Under “normalised enrichment score”, `VKPLKKLRFDIEG [P1V]` is recorded as 0.2.
`PKPLKKARFDIEG [L7A]` — result for “normalised enrichment score”: 0.498.
Under “normalised enrichment score”, `PKPLKKLRFKIEG [D10K]` is recorded as 0.0505.
Under “normalised enrichment score”, `PKPLKHLRFDIEG [K6H]` is recorded as 0.613.
`PKPLKKLRFDSEG [I11S]`: “normalised enrichment score” 0.187.
`PKPLQKLRFDIEG [K5Q]`: “normalised enrichment score” 0.139.
`PKPLKKPRFDIEG [L7P]` — result for “normalised enrichment score”: 0.293.
Under “normalised enrichment score”, `PMPLKKLRFDIEG [K2M]` is recorded as 0.27.

A few entries again (study 3):
With `AGTCGACG` the E-score was 0.171.
The E-score of `GTGGAAGA` is reported as -0.00431.
`CCACCATA` has an E-score of -0.248.
`AAGTTTTA` has an E-score of -0.0697.
For `ATGAATAA`, the E-score was -0.126.
The E-score of `TCTCGAGA` is reported as 0.0378.
`CTTTGCCC` has an E-score of -0.122.
The E-score of `AAATTGGT` is reported as -0.127.
With `ACCTTTCT` the E-score was -0.0294.
`CGCATTAA` has an E-score of 0.136.
